Assay results pooled from the literature.
Every numbered part comes from another study and shows a few of its results, in no order. Changes are numbered by the printed parent chain.
Sequence of UniProt Q13557 (whole entry, looked up): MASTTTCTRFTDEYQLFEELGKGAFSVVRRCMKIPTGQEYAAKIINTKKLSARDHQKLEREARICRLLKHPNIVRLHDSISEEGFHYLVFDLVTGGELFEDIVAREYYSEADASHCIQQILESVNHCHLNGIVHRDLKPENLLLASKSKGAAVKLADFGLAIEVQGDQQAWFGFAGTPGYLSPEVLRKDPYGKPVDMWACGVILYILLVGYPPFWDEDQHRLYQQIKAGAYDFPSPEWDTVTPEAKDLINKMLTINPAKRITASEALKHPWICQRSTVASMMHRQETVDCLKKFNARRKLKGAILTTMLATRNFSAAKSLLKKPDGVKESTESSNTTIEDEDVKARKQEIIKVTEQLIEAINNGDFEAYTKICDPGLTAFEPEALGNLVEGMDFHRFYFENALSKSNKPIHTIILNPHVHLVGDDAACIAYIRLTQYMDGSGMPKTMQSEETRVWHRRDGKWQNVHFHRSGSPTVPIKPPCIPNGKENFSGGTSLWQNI
Sequence of UniProt P10721 (whole entry, unmodified, looked up): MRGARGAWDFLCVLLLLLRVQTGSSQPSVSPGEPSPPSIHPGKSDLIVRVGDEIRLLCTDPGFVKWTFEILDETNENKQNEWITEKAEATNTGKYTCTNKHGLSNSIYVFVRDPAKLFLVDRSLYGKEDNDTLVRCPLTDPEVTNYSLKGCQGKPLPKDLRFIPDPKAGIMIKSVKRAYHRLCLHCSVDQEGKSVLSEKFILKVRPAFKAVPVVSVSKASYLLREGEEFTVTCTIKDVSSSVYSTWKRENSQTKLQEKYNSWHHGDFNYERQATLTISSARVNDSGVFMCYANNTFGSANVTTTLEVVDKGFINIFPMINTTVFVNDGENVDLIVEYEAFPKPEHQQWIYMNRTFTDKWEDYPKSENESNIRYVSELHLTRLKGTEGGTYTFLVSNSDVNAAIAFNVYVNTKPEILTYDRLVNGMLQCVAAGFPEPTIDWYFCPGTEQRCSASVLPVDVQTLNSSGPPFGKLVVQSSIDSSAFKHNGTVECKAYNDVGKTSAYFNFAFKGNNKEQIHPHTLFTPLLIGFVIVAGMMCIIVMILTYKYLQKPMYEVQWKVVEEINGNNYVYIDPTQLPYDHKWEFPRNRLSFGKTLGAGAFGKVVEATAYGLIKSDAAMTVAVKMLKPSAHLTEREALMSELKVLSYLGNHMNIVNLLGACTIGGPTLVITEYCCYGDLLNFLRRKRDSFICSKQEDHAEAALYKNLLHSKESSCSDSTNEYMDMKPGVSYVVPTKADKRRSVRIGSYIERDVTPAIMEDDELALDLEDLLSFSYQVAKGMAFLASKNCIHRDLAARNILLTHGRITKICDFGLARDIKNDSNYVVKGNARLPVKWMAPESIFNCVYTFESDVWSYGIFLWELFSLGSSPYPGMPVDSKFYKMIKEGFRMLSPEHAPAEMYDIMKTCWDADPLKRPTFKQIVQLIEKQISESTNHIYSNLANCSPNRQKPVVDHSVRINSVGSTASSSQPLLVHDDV
Sequence of UniProt P16591 (whole entry, looked up): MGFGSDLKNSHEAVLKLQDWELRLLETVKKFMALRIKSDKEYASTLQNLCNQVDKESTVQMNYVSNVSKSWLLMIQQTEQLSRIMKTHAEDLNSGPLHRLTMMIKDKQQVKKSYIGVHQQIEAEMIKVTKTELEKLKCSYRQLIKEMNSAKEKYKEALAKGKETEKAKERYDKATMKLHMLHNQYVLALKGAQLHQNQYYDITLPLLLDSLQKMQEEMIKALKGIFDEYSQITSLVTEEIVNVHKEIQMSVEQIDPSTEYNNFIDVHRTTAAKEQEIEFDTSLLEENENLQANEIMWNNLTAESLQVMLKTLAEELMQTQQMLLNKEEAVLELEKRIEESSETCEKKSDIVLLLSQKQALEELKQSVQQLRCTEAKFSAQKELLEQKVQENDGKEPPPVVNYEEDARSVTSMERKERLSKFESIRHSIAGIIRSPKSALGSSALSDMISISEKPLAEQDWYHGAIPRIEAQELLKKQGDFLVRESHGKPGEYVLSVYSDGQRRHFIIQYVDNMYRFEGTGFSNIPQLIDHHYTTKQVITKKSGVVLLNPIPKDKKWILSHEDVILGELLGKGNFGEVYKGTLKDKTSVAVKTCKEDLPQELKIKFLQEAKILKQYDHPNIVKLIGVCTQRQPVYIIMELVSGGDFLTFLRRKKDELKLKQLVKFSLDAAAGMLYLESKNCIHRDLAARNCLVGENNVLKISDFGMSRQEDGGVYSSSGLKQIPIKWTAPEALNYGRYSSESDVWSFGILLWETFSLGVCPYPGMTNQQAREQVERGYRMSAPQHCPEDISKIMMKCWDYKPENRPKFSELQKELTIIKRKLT
Sequence of UniProt P27037 (whole entry, looked up): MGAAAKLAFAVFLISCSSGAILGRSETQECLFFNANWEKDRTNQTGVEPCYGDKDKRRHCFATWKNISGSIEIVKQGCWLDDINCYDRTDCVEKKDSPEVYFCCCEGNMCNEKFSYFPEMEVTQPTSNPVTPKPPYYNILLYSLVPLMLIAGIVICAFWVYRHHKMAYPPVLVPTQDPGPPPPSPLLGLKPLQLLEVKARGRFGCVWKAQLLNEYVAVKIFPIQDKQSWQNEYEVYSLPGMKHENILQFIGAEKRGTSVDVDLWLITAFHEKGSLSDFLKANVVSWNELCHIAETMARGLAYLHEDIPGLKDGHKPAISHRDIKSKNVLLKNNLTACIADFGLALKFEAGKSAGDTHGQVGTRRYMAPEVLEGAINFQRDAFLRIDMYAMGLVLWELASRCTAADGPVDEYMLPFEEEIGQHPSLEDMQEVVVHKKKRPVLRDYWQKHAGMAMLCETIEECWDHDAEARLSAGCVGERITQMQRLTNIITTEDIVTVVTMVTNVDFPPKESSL
Sequence of UniProt P21709 (whole entry, looked up): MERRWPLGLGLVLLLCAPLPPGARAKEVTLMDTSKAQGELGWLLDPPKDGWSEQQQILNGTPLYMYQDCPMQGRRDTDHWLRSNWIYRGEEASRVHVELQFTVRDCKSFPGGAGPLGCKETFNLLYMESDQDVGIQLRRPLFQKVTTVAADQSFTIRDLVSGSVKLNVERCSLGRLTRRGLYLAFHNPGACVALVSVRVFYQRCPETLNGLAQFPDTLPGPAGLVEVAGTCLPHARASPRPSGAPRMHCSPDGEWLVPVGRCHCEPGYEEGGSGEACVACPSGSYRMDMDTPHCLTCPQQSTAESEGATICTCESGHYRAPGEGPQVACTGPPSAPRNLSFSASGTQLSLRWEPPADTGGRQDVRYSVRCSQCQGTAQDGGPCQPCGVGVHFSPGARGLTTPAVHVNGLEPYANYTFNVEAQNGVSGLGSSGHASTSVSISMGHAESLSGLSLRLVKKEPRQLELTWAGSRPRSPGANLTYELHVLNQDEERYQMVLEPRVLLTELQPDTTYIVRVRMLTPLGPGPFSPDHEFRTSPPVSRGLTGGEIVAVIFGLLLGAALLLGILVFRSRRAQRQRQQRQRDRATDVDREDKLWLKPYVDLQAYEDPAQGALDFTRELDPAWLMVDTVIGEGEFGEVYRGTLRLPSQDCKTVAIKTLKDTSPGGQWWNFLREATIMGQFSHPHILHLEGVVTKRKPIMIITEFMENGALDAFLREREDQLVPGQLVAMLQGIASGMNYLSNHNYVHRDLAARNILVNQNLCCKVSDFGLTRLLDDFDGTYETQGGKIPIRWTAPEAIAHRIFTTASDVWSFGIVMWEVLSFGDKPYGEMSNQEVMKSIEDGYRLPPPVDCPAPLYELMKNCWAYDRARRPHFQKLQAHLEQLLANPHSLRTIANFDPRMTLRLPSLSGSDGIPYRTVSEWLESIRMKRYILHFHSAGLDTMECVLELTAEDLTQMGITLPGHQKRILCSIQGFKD

Sample 1
Target: CEP164, C-terminal peptide (human)
Method: DHFR complementation, deep sequencing
Sample: yeast
Setting: single substitutions, model-inferred values
Relative to: wild type
Reading: higher = weaker binding
Endpoint: binding free energy change
Starting sequence: PDZK1, PDZ domain 2 (human); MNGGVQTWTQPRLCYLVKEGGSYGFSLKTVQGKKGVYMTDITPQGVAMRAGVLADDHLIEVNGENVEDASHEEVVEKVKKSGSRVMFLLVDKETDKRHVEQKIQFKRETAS; partner HNRVKVYRF
Q31D: 0.0767 kcal/mol
T39A: 0.127 kcal/mol
V75F: 1.37 kcal/mol
N62C: 1.15 kcal/mol
L88G: -0.181 kcal/mol
P11L: 0.512 kcal/mol
E108A: -0.184 kcal/mol
W8T: -0.0114 kcal/mol

Sample 2
SMILES: O=C(Nc1cnc(Oc2ccc(F)cc2)nc1)N1CCc2ncccc2[C@@H]1c1ccc(F)cc1
Read-out: cell-free assay
Method: competition with immobilised ligand
Tested at: 1 µM
Endpoint: remaining binding
EPHA1 (Homo sapiens, UniProt P21709): 100%
KIT (Homo sapiens, UniProt P10721, D816H): 96%
ACVR2A (Homo sapiens, UniProt P27037): 83%
FER (Homo sapiens, UniProt P16591): 93%
CAMK2D (Homo sapiens, UniProt Q13557): 92%

Sample 3
Target: Ras GTPase-activating protein-binding protein 1, full length (G3BP1, Homo sapiens, UniProt Q13283)
Sequence of UniProt Q13283 (whole entry, looked up): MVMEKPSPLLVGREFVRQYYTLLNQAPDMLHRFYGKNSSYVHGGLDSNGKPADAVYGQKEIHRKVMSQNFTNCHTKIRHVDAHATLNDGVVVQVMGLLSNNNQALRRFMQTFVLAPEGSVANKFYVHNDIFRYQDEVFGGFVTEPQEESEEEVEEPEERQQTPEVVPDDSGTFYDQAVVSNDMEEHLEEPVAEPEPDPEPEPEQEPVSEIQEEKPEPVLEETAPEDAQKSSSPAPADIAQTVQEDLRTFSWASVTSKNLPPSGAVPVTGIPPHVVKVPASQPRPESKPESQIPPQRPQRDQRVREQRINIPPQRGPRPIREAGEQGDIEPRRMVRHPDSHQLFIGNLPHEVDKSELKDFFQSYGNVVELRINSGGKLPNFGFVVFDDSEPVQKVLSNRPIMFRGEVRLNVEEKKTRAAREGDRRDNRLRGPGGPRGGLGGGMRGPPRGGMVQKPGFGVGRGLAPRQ
Method: RNA Bind-n-Seq
Form: RNA
Sample: in vitro
Tested at: 200 nM
Setting: whole 134-nt RNA, ends assumed
Added: 150 mM LiCl
Relative to: input library
Reading: higher = stronger binding
Endpoint: log2 enrichment
Each molecule: 7-deaza-guanosine replaces G
All sequences stand within: GGGAGUUCUACAGUCCGACGAUC … UGGAAUUCUCGGGUGUCAAGG
UGGGAGGUGGAUUUAGUUUAUUUUUUUAGCUCAUUUCCAGGGGUGGGAAUUUUUUUUUAAUAUGUGUCAUGAAUAAAGUUGUUUUUGAAA: -0.531
AUUAAUUUGUACACAGACAGGGAAACUGGCAAGCUGAAGGGAGAGGCAACGGUCUCUUUUGAUGACCCACCUUCAGCUAAAGCAGCUAUU: -1.77
CUGUGCUACACAUCGUAUGUACCGAAUCGGGAAAAAAAGGGUUUUUUUGGGUUUUUUUGGGAAAGUAUUAUGUUACGCCGUUCGGAUCUG: -2.28
UCCUGUGCUACACAUCGUAUGUACCGAAUCGGGGCCCCCGGGGCCCCCGGGCCCCCGGGAAAGUAUUAUGUUACGCCGUUCGGAUCUGCA: -1.49
CCUGUGCUACACAUCGUAUGUACCGAAUCGGGGCCCCCCGGGGCCCCCCGGCCCCCCGGGAAAGUAUUAUGUUACGCCGUUCGGAUCUGC: -1.56
GUCCUGUGCUACACAUCGUAUGUACCGAAUCGGGUUUUGGGGUUUUGGGGUUUUGGGGAAAGUAUUAUGUUACGCCGUUCGGAUCUGCAC: -0.0452
UACUCAGCACAGAAAUUCAGGAGACACAGACAAGUUCUUCCACGAUGUCGUACAGACGAGAACUAGAGAAAUACCGUGACCUGGAUGAAG: -0.325
CAAGUCCUGUGCUACACAUCGUAUGUACCGAAUCGGGUUUUUGGGAAAGGGUGGGAAAGUAUUAUGUUACGCCGUUCGGAUCUGCACUUC: -0.381

Sample 4
Target: Protein kinase C zeta type (PRKCZ, Homo sapiens, UniProt Q05513)
Sequence of UniProt Q05513 (whole entry, looked up): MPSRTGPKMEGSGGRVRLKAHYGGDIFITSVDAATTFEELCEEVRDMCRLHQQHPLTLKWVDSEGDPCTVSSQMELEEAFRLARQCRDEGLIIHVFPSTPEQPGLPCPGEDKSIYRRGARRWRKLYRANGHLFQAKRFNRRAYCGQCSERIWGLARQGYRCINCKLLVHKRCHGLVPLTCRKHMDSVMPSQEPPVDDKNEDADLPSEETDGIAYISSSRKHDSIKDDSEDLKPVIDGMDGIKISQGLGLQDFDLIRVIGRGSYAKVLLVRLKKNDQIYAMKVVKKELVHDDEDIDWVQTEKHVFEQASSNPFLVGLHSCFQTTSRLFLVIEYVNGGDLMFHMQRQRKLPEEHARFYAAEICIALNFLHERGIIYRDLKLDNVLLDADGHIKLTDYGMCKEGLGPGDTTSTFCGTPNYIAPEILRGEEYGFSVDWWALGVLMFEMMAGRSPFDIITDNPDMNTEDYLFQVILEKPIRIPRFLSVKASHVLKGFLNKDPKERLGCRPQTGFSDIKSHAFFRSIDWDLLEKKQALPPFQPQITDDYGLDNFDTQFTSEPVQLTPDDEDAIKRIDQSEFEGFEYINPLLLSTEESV
Read-out: enzyme activity
Mode: inhibitor
Tested at: 0.5 µM
Relative to: control
Endpoint: remaining activity
COc1cc2ncnc(Nc3ccc(F)c(Cl)c3)c2cc1OCCCN1CCOCC1: 92.5%
CN(C)c1ccc(C=C2C(=O)Nc3ccccc32)cc1: 112%
NCCNc1ncc(C(N)=O)c(Nc2cccc(C(F)(F)F)c2)n1: 85.5%
COc1ccc(OC)c2c(=S)c3ccccc3[nH]c12: 99.4%
N#CC(C#N)=C(N)/C(C#N)=C/c1ccc(O)cc1: 105%
CCOC(=O)c1c(C)[nH]c(/C=C2\C(=O)Nc3ccccc32)c1C: 97%
CO[C@H]1C[C@@H]2CC[C@@H](C)[C@@](O)(O2)C(=O)C(=O)N2CCCC[C@H]2C(=O)O[C@H]([C@H](C)C[C@@H]2CC[C@@H](O)[C@H](OC)C2)CC(=O)[C@H](C)/C=C(\C)[C@@H](O)[C@@H](OC)C(=O)[C@H](C)C[C@H](C)/C=C/C=C/C=C/1C: 105%
Cc1ccc(Nc2nccc(N(C)c3ccc4c(C)n(C)nc4c3)n2)cc1S(N)(=O)=O: 97.7%
Cn1c2ccccc2c2c3c(c4c5ccccc5n(CCC#N)c4c21)CNC3=O: 87%
CC(C)[C@H](CO)Nc1nc(Nc2cc(N)cc(Cl)c2)c2ncn(C(C)C)c2n1: 101%

A few entries again (sample 2):
ACVR2A (Homo sapiens, UniProt P27037): 83%
KIT (Homo sapiens, UniProt P10721, D816H): 96%
FER (Homo sapiens, UniProt P16591): 93%
